Assay results from different studies.
Every numbered part comes from another study and shows a few of its results, in no order. Several values in a cell are separate wells, animals, samples, runs or records.
UniProt O14965, sequence (whole entry, looked up): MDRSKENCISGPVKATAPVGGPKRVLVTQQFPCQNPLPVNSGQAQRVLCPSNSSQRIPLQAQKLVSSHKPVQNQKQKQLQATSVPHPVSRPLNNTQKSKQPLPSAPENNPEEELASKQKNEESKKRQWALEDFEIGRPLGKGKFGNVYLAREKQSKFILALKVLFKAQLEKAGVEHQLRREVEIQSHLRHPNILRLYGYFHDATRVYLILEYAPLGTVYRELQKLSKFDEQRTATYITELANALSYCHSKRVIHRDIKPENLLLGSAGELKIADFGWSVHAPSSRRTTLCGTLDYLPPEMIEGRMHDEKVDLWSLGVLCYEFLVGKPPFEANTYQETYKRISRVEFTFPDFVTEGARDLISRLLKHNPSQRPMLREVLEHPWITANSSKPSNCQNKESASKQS
UniProt P08922, sequence (whole entry, looked up): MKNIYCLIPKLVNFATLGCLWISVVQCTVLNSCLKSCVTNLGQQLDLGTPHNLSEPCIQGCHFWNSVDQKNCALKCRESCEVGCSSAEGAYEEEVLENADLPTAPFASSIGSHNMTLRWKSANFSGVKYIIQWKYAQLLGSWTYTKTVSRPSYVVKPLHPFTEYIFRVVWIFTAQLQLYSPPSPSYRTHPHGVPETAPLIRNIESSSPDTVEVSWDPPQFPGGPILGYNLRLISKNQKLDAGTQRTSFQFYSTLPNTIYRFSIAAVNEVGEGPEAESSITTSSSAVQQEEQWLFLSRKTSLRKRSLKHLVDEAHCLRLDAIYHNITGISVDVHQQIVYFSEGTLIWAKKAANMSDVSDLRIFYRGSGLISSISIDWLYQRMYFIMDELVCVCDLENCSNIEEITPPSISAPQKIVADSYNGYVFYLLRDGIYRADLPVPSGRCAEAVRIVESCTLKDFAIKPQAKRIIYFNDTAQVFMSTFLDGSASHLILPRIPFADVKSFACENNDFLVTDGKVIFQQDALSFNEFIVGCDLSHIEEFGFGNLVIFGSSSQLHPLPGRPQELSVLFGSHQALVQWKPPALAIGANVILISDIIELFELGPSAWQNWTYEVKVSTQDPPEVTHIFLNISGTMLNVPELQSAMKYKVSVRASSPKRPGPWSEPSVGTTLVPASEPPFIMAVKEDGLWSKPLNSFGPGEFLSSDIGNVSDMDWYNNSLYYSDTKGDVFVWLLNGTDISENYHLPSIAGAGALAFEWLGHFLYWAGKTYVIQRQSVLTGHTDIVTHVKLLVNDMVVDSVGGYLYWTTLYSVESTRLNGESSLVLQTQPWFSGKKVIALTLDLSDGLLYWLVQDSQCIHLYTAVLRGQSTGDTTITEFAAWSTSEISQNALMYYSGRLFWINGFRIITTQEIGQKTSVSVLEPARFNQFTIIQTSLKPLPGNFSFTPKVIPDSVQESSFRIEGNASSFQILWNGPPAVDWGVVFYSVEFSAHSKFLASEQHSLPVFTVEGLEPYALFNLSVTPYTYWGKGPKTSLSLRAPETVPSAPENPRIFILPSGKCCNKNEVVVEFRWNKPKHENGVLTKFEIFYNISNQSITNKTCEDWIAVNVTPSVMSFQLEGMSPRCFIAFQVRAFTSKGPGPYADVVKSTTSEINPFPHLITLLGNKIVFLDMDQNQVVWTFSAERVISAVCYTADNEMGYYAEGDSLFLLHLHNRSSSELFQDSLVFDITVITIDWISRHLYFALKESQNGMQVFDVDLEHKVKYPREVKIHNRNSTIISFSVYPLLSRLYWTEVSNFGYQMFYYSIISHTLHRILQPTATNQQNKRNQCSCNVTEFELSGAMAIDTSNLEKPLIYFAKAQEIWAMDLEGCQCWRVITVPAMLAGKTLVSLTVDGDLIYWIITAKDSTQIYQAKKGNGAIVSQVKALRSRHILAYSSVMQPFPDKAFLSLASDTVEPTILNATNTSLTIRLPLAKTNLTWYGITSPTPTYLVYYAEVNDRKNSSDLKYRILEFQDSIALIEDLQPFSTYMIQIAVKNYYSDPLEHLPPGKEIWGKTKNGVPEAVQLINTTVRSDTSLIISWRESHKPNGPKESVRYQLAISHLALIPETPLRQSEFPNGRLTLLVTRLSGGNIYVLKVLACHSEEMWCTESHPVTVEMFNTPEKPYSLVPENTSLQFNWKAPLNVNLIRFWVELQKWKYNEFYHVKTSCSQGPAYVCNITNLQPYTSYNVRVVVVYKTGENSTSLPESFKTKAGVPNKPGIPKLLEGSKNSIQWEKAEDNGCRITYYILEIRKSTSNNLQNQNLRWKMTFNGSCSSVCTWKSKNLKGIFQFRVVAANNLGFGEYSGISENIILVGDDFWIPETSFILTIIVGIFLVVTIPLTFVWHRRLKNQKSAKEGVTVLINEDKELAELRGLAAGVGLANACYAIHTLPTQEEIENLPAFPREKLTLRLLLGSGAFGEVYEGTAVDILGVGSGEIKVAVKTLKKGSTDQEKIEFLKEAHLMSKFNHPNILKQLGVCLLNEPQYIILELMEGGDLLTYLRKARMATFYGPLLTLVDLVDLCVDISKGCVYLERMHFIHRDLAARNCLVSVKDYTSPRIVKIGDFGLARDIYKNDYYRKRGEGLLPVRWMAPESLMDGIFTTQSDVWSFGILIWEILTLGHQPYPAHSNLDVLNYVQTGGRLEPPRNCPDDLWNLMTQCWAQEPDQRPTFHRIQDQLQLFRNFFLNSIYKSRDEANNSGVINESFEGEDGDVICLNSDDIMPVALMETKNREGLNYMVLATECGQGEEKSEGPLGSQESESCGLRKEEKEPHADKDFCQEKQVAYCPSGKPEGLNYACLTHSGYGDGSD
UniProt Q8TDC3, sequence (whole entry, looked up): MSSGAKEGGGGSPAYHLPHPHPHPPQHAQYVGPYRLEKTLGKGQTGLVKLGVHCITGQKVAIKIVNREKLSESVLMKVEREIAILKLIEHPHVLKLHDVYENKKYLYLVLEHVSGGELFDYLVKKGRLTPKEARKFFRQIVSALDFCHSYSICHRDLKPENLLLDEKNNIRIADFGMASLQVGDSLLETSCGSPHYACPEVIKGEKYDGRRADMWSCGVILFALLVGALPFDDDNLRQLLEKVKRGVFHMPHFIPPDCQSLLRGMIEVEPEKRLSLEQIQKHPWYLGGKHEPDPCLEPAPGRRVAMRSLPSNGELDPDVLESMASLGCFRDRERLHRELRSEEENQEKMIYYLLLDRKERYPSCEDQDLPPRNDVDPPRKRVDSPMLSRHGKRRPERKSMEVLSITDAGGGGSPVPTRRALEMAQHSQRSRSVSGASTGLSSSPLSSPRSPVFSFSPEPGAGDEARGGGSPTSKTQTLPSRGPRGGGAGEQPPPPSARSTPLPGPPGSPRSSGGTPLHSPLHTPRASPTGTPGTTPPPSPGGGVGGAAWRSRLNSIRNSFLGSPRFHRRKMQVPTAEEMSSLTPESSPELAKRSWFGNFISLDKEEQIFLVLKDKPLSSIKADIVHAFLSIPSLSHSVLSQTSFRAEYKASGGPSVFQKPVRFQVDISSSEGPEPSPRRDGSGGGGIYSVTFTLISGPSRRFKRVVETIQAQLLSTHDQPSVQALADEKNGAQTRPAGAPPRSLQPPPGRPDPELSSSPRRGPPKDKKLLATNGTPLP
UniProt Q16513, sequence (whole entry, looked up): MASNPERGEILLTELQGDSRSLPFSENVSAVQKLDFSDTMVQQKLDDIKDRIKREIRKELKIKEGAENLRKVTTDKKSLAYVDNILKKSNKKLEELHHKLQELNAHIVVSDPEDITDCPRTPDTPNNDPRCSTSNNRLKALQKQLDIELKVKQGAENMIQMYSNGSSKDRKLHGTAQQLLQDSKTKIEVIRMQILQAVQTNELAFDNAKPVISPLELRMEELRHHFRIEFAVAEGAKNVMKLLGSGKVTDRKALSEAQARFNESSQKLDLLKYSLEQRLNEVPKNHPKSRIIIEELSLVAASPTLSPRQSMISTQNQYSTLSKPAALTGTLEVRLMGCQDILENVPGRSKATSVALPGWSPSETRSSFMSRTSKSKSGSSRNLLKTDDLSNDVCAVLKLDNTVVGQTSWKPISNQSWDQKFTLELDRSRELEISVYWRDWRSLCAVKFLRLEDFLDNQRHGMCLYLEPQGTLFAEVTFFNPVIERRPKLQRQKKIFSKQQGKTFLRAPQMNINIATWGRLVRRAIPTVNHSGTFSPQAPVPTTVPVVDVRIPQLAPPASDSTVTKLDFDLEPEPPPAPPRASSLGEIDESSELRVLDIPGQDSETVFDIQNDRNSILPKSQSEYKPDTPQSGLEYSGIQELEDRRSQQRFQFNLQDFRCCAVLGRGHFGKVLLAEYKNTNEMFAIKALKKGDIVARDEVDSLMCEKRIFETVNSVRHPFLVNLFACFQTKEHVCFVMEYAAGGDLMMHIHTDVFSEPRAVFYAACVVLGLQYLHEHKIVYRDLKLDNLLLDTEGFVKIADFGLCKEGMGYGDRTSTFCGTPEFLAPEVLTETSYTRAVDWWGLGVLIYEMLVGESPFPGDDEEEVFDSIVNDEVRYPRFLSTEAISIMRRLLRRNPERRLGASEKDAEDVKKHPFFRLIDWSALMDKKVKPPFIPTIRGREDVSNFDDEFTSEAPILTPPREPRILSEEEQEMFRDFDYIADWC
UniProt P34947, sequence (whole entry, looked up): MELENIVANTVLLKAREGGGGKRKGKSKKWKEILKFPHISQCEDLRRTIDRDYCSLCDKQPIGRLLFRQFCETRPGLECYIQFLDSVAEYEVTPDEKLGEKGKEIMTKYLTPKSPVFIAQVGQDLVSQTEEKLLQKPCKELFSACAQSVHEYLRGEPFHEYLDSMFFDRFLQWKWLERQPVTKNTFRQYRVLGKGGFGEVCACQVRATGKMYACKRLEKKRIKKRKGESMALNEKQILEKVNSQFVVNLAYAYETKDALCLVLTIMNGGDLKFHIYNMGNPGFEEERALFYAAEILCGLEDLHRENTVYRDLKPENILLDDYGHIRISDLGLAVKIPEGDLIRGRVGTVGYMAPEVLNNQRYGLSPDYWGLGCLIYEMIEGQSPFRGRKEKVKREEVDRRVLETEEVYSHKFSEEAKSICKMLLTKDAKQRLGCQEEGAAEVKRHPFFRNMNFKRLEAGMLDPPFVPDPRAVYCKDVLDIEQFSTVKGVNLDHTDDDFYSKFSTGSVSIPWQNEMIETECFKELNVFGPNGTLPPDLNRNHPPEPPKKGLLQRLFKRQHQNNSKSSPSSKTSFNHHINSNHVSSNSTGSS

Sample 1 — cell line: mouse MPNST tumor cells; method: high-content nuclear imaging; refers to: cell number; concentration: 10 µM; time: 12 h; setting: mean of 2 replicates; baseline: plate mean; reading: higher = more cells
| Structure (SMILES) | nuclei count |
| --- | --- |
| O=C(O)c1cc(=O)c2ccccc2[nH]1 | -1.19 z-score and 0.541 z-score |
| Cc1nnc(C(C)C)n1C1C[C@H]2CC[C@@H](C1)N2CC[C@H](NC(=O)C1CCC(F)(F)CC1)c1ccccc1 (stereo in doubt) | 0.3 z-score and -0.605 z-score |
| O=S(=O)(NCCNC/C=C/c1ccc(Br)cc1)c1cccc2cnccc12 | -0.205 z-score |
| COc1ccc(Oc2c(Cl)cnn(C3c4ccccc4-c4ccccc43)c2=O)cc1 | -2.43 z-score |
| Cn1cnc([N+](=O)[O-])c1Sc1ncnc2[nH]cnc12 | -2.12 z-score and -2.18 z-score |
| COc1ccc(Cl)cc1C(=O)NCCc1ccc(S(=O)(=O)NC(=O)NC2CCCCC2)cc1 | 1.64 z-score and 1.19 z-score |
| COC(=O)Nc1nc2cc(C(=O)c3cccs3)ccc2[nH]1 | -4 z-score and -5.49 z-score |
| COc1c(Cl)cc2c([nH]c3cnccc32)c1NC(=O)c1cccnc1C | 0.953 z-score |
| CC1CCc2nc(N)c(C#N)c(-c3cccnc3)c2C1 (centres unmarked) | 1.82 z-score |
| N#Cc1c(N)nc(SCc2ncc[nH]2)c(C#N)c1-c1ccc(O)cc1 | 1.22 z-score |
| CC(C)c1ccc(Cn2ccc3c4c(N)nc(NC5CC5)nc4ccc32)cc1 | -6.3 z-score |

Sample 2 — observed: enzyme activity; mode: inhibitor; concentration: 0.5 µM; baseline: control
Structure (SMILES): CS(=O)(=O)CCNCc1ccc(-c2ccc3ncnc(Nc4ccc(OCc5cccc(F)c5)c(Cl)c4)c3c2)o1
| target | remaining activity [%] |
| --- | --- |
| NTRK3 (Homo sapiens, UniProt Q16288) | 103 |
| GRK5 (Homo sapiens, UniProt P34947) | 97.2 |
| DYRK4 (Homo sapiens, UniProt Q9NR20) | 103 |
| CAMK1D (Homo sapiens, UniProt Q8IU85) | 104 |
| MAPK10 (Homo sapiens, UniProt P53779) | 100 |
| BRSK1 (Homo sapiens, UniProt Q8TDC3) | 98.6 |
| ROS1 (Homo sapiens, UniProt P08922) | 107 |
| PKN2 (Homo sapiens, UniProt Q16513) | 92 |
| CSNK2A2 (Homo sapiens, UniProt P19784) | 101 |
| MAP3K8 (Homo sapiens, UniProt P41279) | 99.7 |
| Aurora kinase A (AURKA, Homo sapiens, UniProt O14965) | 81.5 |
| MAP3K2 (Homo sapiens, UniProt Q9Y2U5) | 123 |
| CDK7 (Homo sapiens, UniProt P50613) | 109 |
| DMPK (Homo sapiens, UniProt Q09013) | 94.7 |
| PTK2B (Homo sapiens, UniProt Q14289) | 101 |
| HIPK3 (Homo sapiens, UniProt Q9H422) | 99.1 |
| PRKD1 (Homo sapiens, UniProt Q15139) | 99.4 |

Sample 3 — observed: binding; mode: competitor; method: NanoBRET; cell line: HEK293; baseline: vehicle and 20 µM BI compound
SMILES: Cn1cnc(Cn2ccc3ccc(CNCc4[nH]c5ccccc5c4[C@H]4NC(=O)c5ccc(O)cc54)cc32)c1
Target: GTPase KRas (KRAS, Homo sapiens, UniProt P01116, G12C)
| concentration | time | normalized BRET |
| --- | --- | --- |
| 3.05 nM | 3 h | 100% and 84.8% and 114% and 88.8% |
| 27.4 nM | 2 h | 108% and 111% and 101% and 112% |
| 2.22 µM | 3 h | 13.8% and 14.3% and 15.3% and 14.7% |
| 741 nM | 2 h | 42% and 47.2% and 46.5% and 47.7% |
| 247 nM | 1 h | 85% and 89.9% and 90.2% |

Sample 4 — cell line: normal-adjacent organoid sample F; method: CellTiter-Glo; concentration: 1 µM; setting: replicate mean; baseline: DMSO
| Structure (SMILES) | viability |
| --- | --- |
| Cn1cnc2c(F)c(Nc3ccc(Br)cc3Cl)c(C(=O)NOCCO)cc21 | 66.4% |
| C[C@H](c1ccc(F)cc1)N(Cc1cccc(C(=O)O)c1)C(=O)c1cnc2ccccc2c1 | 104% |
| Cc1nc(C2CCN(C(=O)c3ccc(OC(F)(F)F)cc3N)CC2)c2ncc(N3CCN(C)CC3)cc2n1 | 108% |
| CC(=O)N1CCC(c2ccc(C(=O)NC3=NCCN3)cc2C(F)(F)F)CC1 | 113% |
| N#CC1(c2ccccn2)CCN(Cc2cc(C(=O)N3CCCC3)c(=O)n3ccccc23)CC1 | 110% |
| C[C@@H](NC(=O)Nc1cc2[nH]ncc2c(CO)n1)c1ccccc1 | 99.7% |
| CN(c1ccnc(CNc2nc(Nc3ccc4c(c3)CC(=O)N4)ncc2C(F)(F)F)n1)S(C)(=O)=O | 106% |
| CCC(=O)N[C@H]1CC[C@@H](C(=O)N(C)c2ccc(-c3nc4ccccc4o3)cc2)C1 | 11.6% |
| O=C1CCc2cc(Nc3cc(OC4CCOCC4)c([N+](=O)[O-])cc3Cl)ccc2N1 | 105% |
| Cc1cn(-c2cc(NC(=O)c3ccc4c(c3)CN(c3cncnc3)C[C@@H]4C)cc(C(F)(F)F)c2)cn1 | 106% |
| C[C@@H](c1cccc(C#N)c1)n1cc(Cl)cc(C(N)=O)c1=N | 90.5% |
| C[C@@]1(Cc2ccc(C#N)cc2)C(=O)N(c2cc(Cl)cc(Cl)c2)c2ncc(C(=O)NC3(c4nc(C5CCC5)no4)CC3)n21 | 96.1% |
| CN1CCN(c2cnc3c(C4CCN(C(=O)c5ccc(OC(F)(F)F)cc5N)CC4)ncnc3c2)CC1 | 101% |
| NS(=O)(=O)c1cc(NC(=O)Cc2ccccc2)ccc1Oc1cccc(Cl)c1 | 104% |
